Published values of several laboratories.
± gives the spread as reported.
MAPK9: Mitogen-activated protein kinase 9 (MAPK9, Homo sapiens, UniProt P45984)
Sequence of UniProt P45984 (whole entry, looked up): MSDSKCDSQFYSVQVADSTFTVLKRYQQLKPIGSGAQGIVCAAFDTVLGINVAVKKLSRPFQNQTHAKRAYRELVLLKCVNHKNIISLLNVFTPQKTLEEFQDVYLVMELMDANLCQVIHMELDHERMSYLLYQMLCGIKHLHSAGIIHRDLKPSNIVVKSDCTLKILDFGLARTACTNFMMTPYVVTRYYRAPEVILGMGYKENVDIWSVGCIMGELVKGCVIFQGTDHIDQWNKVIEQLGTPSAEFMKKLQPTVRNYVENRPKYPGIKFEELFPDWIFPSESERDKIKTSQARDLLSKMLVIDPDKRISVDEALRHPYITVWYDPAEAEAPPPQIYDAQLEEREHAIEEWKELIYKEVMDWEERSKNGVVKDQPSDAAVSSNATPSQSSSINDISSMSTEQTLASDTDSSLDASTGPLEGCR
TYMS: Thymidylate synthase (TYMS, Homo sapiens, UniProt P04818)
Sequence of UniProt P04818 (whole entry, looked up): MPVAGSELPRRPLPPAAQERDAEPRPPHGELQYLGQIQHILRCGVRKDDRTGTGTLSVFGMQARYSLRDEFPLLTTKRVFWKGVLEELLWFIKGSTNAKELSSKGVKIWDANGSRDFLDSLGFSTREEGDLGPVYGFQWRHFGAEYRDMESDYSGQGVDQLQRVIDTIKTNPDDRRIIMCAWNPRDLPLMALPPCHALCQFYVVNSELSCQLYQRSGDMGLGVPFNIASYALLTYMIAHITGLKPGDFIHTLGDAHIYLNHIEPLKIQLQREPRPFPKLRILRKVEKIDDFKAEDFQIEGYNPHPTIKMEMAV
lecA: PA-I galactophilic lectin (lecA, Pseudomonas aeruginosa, UniProt Q05097)
Sequence of UniProt Q05097 (whole entry, looked up): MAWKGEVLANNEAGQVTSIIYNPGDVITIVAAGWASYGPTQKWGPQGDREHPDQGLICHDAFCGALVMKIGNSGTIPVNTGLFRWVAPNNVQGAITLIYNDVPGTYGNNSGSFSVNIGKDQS
Sequence of UniProt Q9UKF6 (whole entry, looked up): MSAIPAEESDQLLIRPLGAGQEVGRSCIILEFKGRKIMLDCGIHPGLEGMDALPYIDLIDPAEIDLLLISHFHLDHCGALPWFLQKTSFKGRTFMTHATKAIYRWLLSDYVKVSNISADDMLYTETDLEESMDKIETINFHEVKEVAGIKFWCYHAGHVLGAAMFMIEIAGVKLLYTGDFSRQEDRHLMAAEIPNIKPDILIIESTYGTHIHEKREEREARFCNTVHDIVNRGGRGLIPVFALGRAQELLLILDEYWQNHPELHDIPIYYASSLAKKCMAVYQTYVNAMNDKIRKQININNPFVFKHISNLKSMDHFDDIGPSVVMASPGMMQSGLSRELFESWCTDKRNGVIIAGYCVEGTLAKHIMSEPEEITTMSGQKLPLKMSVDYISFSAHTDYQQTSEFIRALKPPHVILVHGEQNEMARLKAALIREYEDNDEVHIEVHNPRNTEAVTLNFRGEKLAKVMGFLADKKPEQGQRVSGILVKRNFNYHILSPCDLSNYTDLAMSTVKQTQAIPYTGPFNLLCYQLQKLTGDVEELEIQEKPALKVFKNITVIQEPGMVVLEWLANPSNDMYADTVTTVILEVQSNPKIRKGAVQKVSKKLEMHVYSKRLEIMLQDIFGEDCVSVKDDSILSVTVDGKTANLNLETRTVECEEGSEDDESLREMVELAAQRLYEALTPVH
Sequence of UniProt Q2M2I8 (whole entry, looked up): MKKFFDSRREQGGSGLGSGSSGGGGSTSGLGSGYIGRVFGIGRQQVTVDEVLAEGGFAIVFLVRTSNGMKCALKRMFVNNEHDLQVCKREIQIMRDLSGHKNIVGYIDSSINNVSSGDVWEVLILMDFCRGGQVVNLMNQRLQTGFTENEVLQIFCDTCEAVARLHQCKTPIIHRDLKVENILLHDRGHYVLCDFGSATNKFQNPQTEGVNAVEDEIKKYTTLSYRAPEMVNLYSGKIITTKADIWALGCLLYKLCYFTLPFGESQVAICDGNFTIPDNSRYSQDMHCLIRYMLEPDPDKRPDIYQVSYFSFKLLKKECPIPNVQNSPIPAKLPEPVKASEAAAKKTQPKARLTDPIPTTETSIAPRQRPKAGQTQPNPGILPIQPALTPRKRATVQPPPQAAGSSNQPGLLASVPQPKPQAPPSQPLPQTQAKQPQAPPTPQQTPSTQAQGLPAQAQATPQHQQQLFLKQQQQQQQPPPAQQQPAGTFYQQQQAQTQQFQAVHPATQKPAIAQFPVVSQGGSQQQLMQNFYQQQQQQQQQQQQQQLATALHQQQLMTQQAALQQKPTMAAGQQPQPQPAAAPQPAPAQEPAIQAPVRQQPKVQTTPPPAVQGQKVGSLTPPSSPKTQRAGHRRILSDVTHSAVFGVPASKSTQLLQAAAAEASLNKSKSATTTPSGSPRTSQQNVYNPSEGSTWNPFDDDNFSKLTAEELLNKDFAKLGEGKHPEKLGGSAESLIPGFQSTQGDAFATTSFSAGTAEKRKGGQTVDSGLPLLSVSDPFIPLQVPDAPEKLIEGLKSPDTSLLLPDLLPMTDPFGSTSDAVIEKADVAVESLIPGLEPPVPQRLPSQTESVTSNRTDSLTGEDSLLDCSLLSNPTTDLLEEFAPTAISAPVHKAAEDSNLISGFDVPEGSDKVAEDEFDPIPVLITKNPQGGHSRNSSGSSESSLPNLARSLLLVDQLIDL
Sequence of UniProt Q9BV86 (whole entry, looked up): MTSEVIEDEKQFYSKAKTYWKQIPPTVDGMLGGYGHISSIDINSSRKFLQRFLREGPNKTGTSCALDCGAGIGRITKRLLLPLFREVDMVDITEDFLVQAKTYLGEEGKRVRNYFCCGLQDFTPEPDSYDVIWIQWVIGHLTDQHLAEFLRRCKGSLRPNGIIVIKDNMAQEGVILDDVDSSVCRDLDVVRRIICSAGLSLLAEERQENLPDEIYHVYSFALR
Sequence of UniProt Q9NYL2 (whole entry, looked up): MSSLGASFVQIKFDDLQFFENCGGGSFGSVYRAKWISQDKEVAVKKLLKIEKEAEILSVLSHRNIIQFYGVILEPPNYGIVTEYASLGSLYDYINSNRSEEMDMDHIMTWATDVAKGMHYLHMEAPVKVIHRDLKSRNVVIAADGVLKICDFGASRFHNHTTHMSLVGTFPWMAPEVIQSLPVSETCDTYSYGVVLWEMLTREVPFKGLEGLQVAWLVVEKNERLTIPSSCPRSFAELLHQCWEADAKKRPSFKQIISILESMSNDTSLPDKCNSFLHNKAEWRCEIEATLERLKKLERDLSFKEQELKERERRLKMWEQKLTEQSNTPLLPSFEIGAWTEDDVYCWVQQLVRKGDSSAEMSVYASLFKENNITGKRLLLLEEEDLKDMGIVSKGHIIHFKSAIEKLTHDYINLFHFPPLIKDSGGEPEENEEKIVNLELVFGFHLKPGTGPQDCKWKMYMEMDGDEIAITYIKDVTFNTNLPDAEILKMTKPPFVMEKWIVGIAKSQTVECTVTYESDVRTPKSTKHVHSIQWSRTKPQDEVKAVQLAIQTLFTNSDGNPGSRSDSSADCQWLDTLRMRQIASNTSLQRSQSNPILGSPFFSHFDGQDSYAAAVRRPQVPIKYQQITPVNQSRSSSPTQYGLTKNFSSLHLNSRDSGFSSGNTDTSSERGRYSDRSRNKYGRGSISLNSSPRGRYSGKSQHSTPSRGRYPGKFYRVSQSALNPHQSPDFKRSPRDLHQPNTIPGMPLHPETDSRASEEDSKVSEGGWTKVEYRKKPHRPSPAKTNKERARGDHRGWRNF
Sequence of UniProt Q7Z418 (whole entry, looked up): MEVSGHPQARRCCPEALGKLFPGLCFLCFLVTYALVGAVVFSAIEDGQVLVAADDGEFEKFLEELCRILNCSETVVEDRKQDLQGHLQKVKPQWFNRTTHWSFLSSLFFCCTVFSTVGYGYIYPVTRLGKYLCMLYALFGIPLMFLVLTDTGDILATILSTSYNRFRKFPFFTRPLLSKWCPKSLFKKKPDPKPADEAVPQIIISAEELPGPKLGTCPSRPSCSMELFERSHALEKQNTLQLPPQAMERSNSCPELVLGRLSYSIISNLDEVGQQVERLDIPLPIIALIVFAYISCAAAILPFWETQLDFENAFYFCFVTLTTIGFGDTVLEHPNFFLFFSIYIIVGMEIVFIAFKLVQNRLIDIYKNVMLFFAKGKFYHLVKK
Sequence of UniProt P28074 (whole entry, looked up): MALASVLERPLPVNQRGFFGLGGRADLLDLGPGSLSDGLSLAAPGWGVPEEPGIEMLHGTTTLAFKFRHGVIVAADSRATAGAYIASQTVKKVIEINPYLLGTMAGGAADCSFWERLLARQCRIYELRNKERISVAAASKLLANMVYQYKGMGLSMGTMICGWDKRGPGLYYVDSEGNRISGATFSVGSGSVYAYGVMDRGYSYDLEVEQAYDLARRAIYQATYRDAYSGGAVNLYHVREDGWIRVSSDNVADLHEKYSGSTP
Sequence of UniProt Q8IXJ6 (whole entry, looked up): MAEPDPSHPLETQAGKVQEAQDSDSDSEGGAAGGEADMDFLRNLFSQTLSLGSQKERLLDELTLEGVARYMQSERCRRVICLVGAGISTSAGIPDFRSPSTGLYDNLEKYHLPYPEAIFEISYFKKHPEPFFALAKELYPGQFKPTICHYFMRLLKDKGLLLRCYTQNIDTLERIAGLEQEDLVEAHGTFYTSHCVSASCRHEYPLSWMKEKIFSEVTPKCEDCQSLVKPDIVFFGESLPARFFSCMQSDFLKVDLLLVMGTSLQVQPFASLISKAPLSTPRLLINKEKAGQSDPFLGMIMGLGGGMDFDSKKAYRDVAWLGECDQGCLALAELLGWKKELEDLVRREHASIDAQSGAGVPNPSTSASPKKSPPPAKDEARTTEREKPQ
Sequence of UniProt Q99873 (whole entry, looked up): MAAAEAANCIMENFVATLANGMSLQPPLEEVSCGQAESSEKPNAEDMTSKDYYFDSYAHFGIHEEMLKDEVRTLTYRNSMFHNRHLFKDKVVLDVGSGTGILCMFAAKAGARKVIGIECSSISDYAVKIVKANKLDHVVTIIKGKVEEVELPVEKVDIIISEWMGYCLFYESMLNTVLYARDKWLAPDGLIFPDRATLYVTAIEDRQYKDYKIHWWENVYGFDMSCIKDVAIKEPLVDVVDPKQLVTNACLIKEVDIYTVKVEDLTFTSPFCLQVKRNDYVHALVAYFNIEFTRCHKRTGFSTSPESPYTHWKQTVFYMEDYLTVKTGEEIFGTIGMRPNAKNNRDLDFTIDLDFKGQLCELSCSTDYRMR

`CC[C@H](C)[C@H](NC(=O)[C@H](CO)NC(=O)[C@H](Cc1ccc(O)cc1)NC(=O)[C@H](CC(=O)O)NC(=O)[C@H](CO)NC(=O)[C@@H](NC(=O)[C@H](Cc1ccccc1)NC(=O)[C@@H](NC(=O)CNC(=O)[C@@H]1CCCN1C(=O)[C@H](C)NC(=O)[C@@H](N)Cc1ccc(O)cc1)[C@@H](C)O)[C@@H](C)CC)C(=O)N[C@@H](C)C(=O)N[C@@H](CCSC)C(=O)N[C@@H](CC(=O)O)C(=O)N[C@@H](CCCCN)C(=O)N[C@H](C(=O)N[C@@H](Cc1c[nH]cn1)C(=O)N[C@@H](CCC(N)=O)C(=O)N[C@@H](CCC(N)=O)C(=O)N[C@@H](CC(=O)O)C(=O)N[C@@H](Cc1ccccc1)C(=O)N[C@H](C(=O)N[C@@H](CC(N)=O)C(=O)N[C@@H](Cc1c[nH]c2ccccc12)C(=O)N[C@@H](CC(C)C)C(=O)N[C@@H](CC(C)C)C(=O)N[C@@H](C)C(=O)N[C@@H](CCC(N)=O)C(=O)N[C@@H](CCCCN)C(=O)NCC(=O)N[C@@H](CCCCN)C(=O)N[C@@H](CCCCN)C(=O)N[C@@H](CC(N)=O)C(=O)N[C@@H](CC(=O)O)C(=O)N[C@@H](Cc1c[nH]c2ccccc12)C(=O)N[C@@H](CCCCN)C(=O)N[C@@H](Cc1c[nH]cn1)C(=O)N[C@@H](CC(N)=O)C(=O)N[C@H](C(=O)N[C@H](C(=O)N[C@@H](CCC(N)=O)C(=O)O)[C@@H](C)O)[C@@H](C)CC)C(C)C)[C@@H](C)CC` has an IC50 of 15.8 nM (Gastric inhibitory polypeptide receptor (Rattus norvegicus, UniProt P43219); ligand displacement in cells, radioligand).
`CC(C)C[C@H](NC(=O)[C@H](CC(N)=O)NC(=O)[C@H](CC(C)C)NC(=O)[C@@H](NC(=O)[C@@H](NC(=O)[C@@H]1CCCN1C(=O)[C@H](CCCNC(=N)N)NC(=O)[C@H](CCCCN)NC(=O)[C@@H]1CCCN1)[C@@H](C)O)[C@@H](C)O)C(=O)N[C@@H](Cc1ccccc1)C(=O)NCCCCCC(=O)N[C@@H](CCCNC(=N)N)C(=O)N[C@@H](CCCNC(=N)N)C(=O)N[C@@H](CCCNC(=N)N)C(=O)N[C@@H](CCCNC(=N)N)C(=O)N[C@@H](CCCNC(=N)N)C(=O)N[C@@H](CCCNC(=N)N)C(=O)N[C@@H](CCCNC(=N)N)C(=O)N[C@@H](CCCNC(=N)N)C(=O)N[C@@H](CCCNC(=N)N)C(N)=O` has an IC50 of 89 ± 5 nM (MAPK9; kinase activity, inhibitor, radiometric; pH 7.5, 30 °C, added: GST-c-Jun substrate).
`COc1ccc2c(c1)C(CC(=O)NC(C(=O)NC(CCc1ccccc1)C(=O)NCc1ccc(C)cc1)C(C)O)CC2=O` (centres unmarked) has an IC50 of over 100000 nM (Proteasome subunit beta type-3/PSMB7 (Homo sapiens, UniProt P49720+Q99436); inhibitor).
`O=Cc1ccc(-c2ccc(O)cc2)c(C(=C2C=CC(=O)C=C2)c2ccc(O)cc2)c1C#Cc1ccc(O)cc1` gave an IC50 of 290 nM (3',5'-cyclic-AMP phosphodiesterase 4D (PDE4D, Homo sapiens, UniProt Q08499); enzyme activity, inhibitor, fluorescence).
For `CCCCCCCC[N+](CCCCCCCC)(CCCCCCCC)CCCCCCCC`, the IC50 was 6000 nM (Potassium channel subfamily K member 18 (KCNK18, Homo sapiens, UniProt Q7Z418); ion current, inhibitor, patch clamp).
For `N=C(NCCCCC(N)C(N)=O)NCCCSCC1OC(n2cnc3c(N)ncnc32)C(O)C1O` (centres unmarked), the IC50 was over 100000 nM (N-terminal Xaa-Pro-Lys N-methyltransferase 1 (Homo sapiens, UniProt Q9BV86); enzyme activity, inhibitor, fluorescence).
`CC(=O)C12NC(C)(C)CC1(C)C(=O)C1=C2c2c(c3c4n2C(C)(C)CC2=C4C4(CC(C)(C)NC(C)(C4)C2=O)CC3(C)C)C(=O)C(C)(C)N1` (single isomer, unassigned; (-)) has an IC50 of 810 nM (Short transient receptor potential channel 6 (TRPC6, Homo sapiens, UniProt Q9Y210); ion current, inhibitor, patch clamp).
With `N=C(N)NCCC[C@H](NC(=O)[C@H](CCCNC(=N)N)NC(=O)[C@H](CC(N)=O)NC(=O)[C@H](CCCNC(=N)N)NC(=O)[C@@H]1CCCN1C(=O)[C@H](CCCCN)NC(=O)[C@H](CCCCN)NC(=O)[C@H](CCC(N)=O)NC(=O)[C@H](CC(=O)O)NC(=O)[C@@H](N)Cc1c[nH]c2ccccc12)C(=O)O` the IC50 was 11000 nM (Neuropilin-1 (NRP1, Homo sapiens, UniProt O14786); inhibitor, plate binding; 1 h, 25 °C).
`N=C(NCCCCC(N)C(N)=O)NCCSCC1OC(n2cnc3c(N)ncnc32)C(O)C1O` (centres unmarked) gave an IC50 of 8300 nM (Protein arginine N-methyltransferase 1 (PRMT1, Homo sapiens, UniProt Q99873); enzyme activity, inhibitor, fluorescence).
The IC50 of `CCS(=O)(=O)c1ccccc1CN1CCN(c2nc3ccc(F)cc3s2)CC1` is reported as 1820 ± 320 nM (N-acylethanolamine-hydrolyzing acid amidase (NAAA, Homo sapiens, UniProt Q02083); enzyme activity, inhibitor; HEK293 cells expressing NAAA).
With `OC[C@H]1[C@@H](O)[C@@H](O)CN1Cc1ccncc1` the IC50 was 770000 nM (Golgi alpha-mannosidase IIb (Drosophila melanogaster, UniProt Q9VF33); pH 6.0, 0.5 mM CoCl2, added: 2 mM pNP-Man).
The IC50 of `CCCCCCCCCCCCCC(=S)NCCCC[C@H](NS(C)(=O)=O)C(=O)N[C@@H](C)C(=O)N[C@@H](CCCNC(=N)N)C(N)=O` is reported as 16 nM (NAD-dependent protein deacetylase sirtuin-2 (SIRT2, Homo sapiens, UniProt Q8IXJ6); enzyme activity, inhibitor, HPLC).
With `NS(=O)(=O)c1ccc(/N=N/c2ccc(O)c3ncccc23)cc1` the IC50 was 1360 nM (Lactoylglutathione lyase (GLO1, Homo sapiens, UniProt Q04760); enzyme activity, inhibitor).
With `C=CCc1ccc(OCc2nnc(SCC(=O)Nc3ccc(Br)cc3)o2)c(OC)c1` the IC50 was 2930 nM (TYMS; enzyme activity, inhibitor).
For `C=C(NC(=O)C(=C)NC(=O)c1csc(C2=NC3c4csc(n4)C4NC(=O)c5csc(n5)C(C(C)(O)C(C)O)NC(=O)C5CSC(=N5)C(=CC)NC(=O)C(C(C)O)NC(=O)c5csc(n5)C3(CC2)NC(=O)C(CCC(N)=O)NC(=O)C(=C)NC(=O)C(C)NC(=O)C(C(C)CC)NC2C=Cc3c(C(C)O)cc(nc3C2O)C(=O)OC4C)n1)C(N)=O` (centres unmarked), the IC50 was 4190 ± 480 nM (Proteasome Macropain subunit MB1 (PSMB5, Homo sapiens, UniProt P28074); chymotrypsin-like activity, inhibitor; purified 20S proteasome; 15 min preincubation, 37 °C, added: Suc-Leu-Leu-Val-Tyr-AMC substrate).
For `CN(C)c1ccc2c3c(cccc13)C(=O)N(CCS)C2=O`, the IC50 was 2400 nM (Metallo-beta-lactamase type 2 (blaNDM-1, Klebsiella pneumoniae, UniProt C7C422); enzyme activity, inhibitor; pH 7).
`NC[C@H]1O[C@@H](c2cn([C@H]3[C@H](O)[C@@H](O)[C@H](n4cc([C@@H]5O[C@H](CN)[C@@H](n6cc(CO[C@@H]7O[C@H](CO)[C@H](O)[C@H](O)[C@H]7O)nn6)[C@H](O)[C@H]5O)nn4)O[C@@H]3CO)nn2)[C@H](O)[C@@H](O)[C@@H]1n1cc(CO[C@@H]2O[C@H](CO)[C@H](O)[C@H](O)[C@H]2O)nn1` gave an IC50 of 19 nM (lecA; protein-protein interaction, inhibitor, ELISA).
For `COC(=O)C1CN1S(=O)(=O)c1ccc2c(C=O)c(N(C)C)ccc2c1` (centres unmarked), the IC50 was 4100 nM (Protein disulfide-isomerase A3 (PDIA3, Homo sapiens, UniProt P30101); enzyme activity, inhibitor, absorbance; pH 7.6).
For `O=C(COCCc1ccccc1)N[C@@H](Cc1cn(CCNC(=O)c2ccc(S[C@@H]3O[C@H](CO)[C@H](O)[C@H](O)[C@H]3O)cc2)nn1)C(=O)NCCO`, the IC50 was 43300 nM (lecA; ligand displacement, FP).
`CC(C)S(=O)(=O)c1cccc(O)c(=O)c1O` has an IC50 of 52000 nM (Ribonuclease HI (rnhA, Escherichia coli, UniProt P0A7Y4); enzyme activity, inhibitor).
`Cc1cc(NC(=O)c2cccc(-n3cc(NC(=O)Nc4ccc(Cl)cc4)cn3)c2)ccn1` gave an IC50 of 650 nM (MAPK9; enzyme activity, inhibitor).
For `COc1cccc(C2C(C(=O)Nc3cccnc3)=C(C)Nc3nc(SCc4ccncc4)nn32)c1` (centres unmarked), the IC50 was 1560 nM (Serine/threonine-protein kinase mTOR (MTOR, Homo sapiens, UniProt P42345); enzyme activity, inhibitor, TR-FRET).
With `CN1CCN(C)[C@H](CCN2CC[C@H](c3ccc(F)cc3)C2)C1` the IC50 was 110000 nM (Isocitrate dehydrogenase [NADP], mitochondrial (IDH2, Homo sapiens, UniProt P48735); enzyme activity, inhibitor, absorbance).
For `O=c1[nH]cc(S(=O)(=O)Nc2cccc(-c3nnc(-c4ccc(F)cc4)o3)c2)c(=O)[nH]1`, the IC50 was 5610 nM (TYMS; enzyme activity, inhibitor, absorbance).
With `N[C@@H](Cc1c[nH]c2ccc(OCc3cccc(-c4ccsc4)c3)cc12)C(=O)O` the IC50 was 19000 nM (Large neutral amino acids transporter small subunit 1 (SLC7A5, Homo sapiens, UniProt Q01650); transporter uptake, inhibitor, radiometric).
`N#C/C(=C\c1ccc(O)c(O)c1)C(=O)c1ccc(O)c(O)c1` has an IC50 of 1200 ± 100 nM (Single-stranded DNA-binding protein (ssb, Escherichia coli, UniProt P0AGE0); DNA binding, fluorescence polarization; added: Cy5-dT15 DNA 5 nM).
`NC1CCN(Cc2ccn3ncnc(Nc4cccc(-c5nnc(C6CC6)s5)c4)c23)CC1` gave an IC50 of 100 nM (AP2-associated protein kinase 1 (AAK1, Homo sapiens, UniProt Q2M2I8); enzyme activity, inhibitor).
For `COc1ccc(S(=O)(=O)Nc2ccc(NS(=O)(=O)c3cnn(C)c3)cc2CCC(=O)O)cc1`, the IC50 was 110 nM (Kelch-like ECH-associated protein 1, Kelch domain (KEAP1, Homo sapiens, UniProt Q14145); Keap1-Nrf2 interaction, inhibitor, fluorescence polarisation).
The IC50 of `O=C(CCc1cccc2c1B(O)OC2)Nc1cccc(N2CCOCC2)c1` is reported as 320 nM (Cleavage and polyadenylation specificity factor subunit 3 (CPSF3, Homo sapiens, UniProt Q9UKF6); ligand displacement, FP).
`O=C(O[C@H]1Cc2c(O)cc(O)cc2O[C@@H]1c1ccc(O)c(O)c1)c1cc(O)c(O)c(O)c1` gave an IC50 of 27500 nM (maltase, rat; enzyme activity, inhibitor; rat intestinal brush border vesicles).
The IC50 of `CCCCCC(O)/C=C/C=O` (centres unmarked) is reported as 6000 to 23000 nM (Mitogen-activated protein kinase kinase kinase 20, Cys22 (MAP3K20, Homo sapiens, UniProt Q9NYL2); cysteine probe labelling, competitive isoTOP-ABPP; MDA-MB-231 proteome).
For `COc1ccc(S(=O)(=O)NCc2c[nH]nc2-c2cccs2)cc1`, the IC50 was under 100 nM (myosin A (Eimeria tenella, UniProt U6KUP6); actin-activated ATPase, inhibitor; upper bound, enzyme-limited).

For quick reference, copied from above:
With `N=C(N)NCCC[C@H](NC(=O)[C@H](CCCNC(=N)N)NC(=O)[C@H](CC(N)=O)NC(=O)[C@H](CCCNC(=N)N)NC(=O)[C@@H]1CCCN1C(=O)[C@H](CCCCN)NC(=O)[C@H](CCCCN)NC(=O)[C@H](CCC(N)=O)NC(=O)[C@H](CC(=O)O)NC(=O)[C@@H](N)Cc1c[nH]c2ccccc12)C(=O)O` the IC50 was 11000 nM (Neuropilin-1 (NRP1, Homo sapiens, UniProt O14786); inhibitor, plate binding; 1 h, 25 °C).
`N=C(NCCCCC(N)C(N)=O)NCCSCC1OC(n2cnc3c(N)ncnc32)C(O)C1O` (centres unmarked) gave an IC50 of 8300 nM (Protein arginine N-methyltransferase 1 (PRMT1, Homo sapiens, UniProt Q99873); enzyme activity, inhibitor, fluorescence).
The IC50 of `CCS(=O)(=O)c1ccccc1CN1CCN(c2nc3ccc(F)cc3s2)CC1` is reported as 1820 ± 320 nM (N-acylethanolamine-hydrolyzing acid amidase (NAAA, Homo sapiens, UniProt Q02083); enzyme activity, inhibitor; HEK293 cells expressing NAAA).
